Measured values gathered from unrelated publications.
Each numbered part is a random draw from the data of one study; scales do not carry over between parts.

Set 1
Target: RNA binding protein fox-1 homolog 2, RRM domain, GST-SBP tag (RBFOX2, Homo sapiens, UniProt O43251-10, residues 100-194)
Method: RNA Bind-n-Seq
Form: RNA
Medium: in vitro
Tested at: 365 nM
Notes: natural RNA segment, single round, ends assumed
Relative to: no-protein control
Reading: higher = stronger binding
Residues (chain): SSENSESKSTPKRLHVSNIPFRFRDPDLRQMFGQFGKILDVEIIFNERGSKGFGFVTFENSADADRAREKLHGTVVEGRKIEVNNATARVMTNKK
Strand | RBNS enrichment (R)
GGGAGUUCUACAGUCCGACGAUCGCCAUUUUUGCCAACAAUAGCUUGUGGCUCCCCACAUUUUCCUACCCUGCACUCAAGGGCCAGACCACUCUCUGCAUGGACCAGACCAUCUUCCCAAACCCAUGGUGCUUUGGAAUUCUCGGGUGCCAA | 1.93
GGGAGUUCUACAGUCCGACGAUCAUUAACUGUCACCUUUUAUUCUUAAACUUGAAAGUACAGAAAUCAUUAAAUUAUUAAGUUGUACAAUAAAAGGAUUGGUUUCUUUUCUUUUUUUUUUUUUUAAGUGCUUCUGGAAUUCUCGGGUGCCAA | 0.942
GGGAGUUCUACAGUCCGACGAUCUAUUAAUUUGGAUUGCCUGAGCAGUGUGUAUCCCAUGAUGAUGAAGGGAAAUGGAGAGAUUUUUCCUUUUAGCUCUGCUGGUCAGAGAUUAAGCCACACCUUUCCAUUUUUGGAAUUCUCGGGUGCCAA | 0.316
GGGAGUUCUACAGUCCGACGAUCAUAAGUAACAAGGAGCCAAAUGUUAAUCACUAAGACAUGGGGAAAAUGUCUGCAGGGCAUGUCAGAGACCUUUGCAGCAGUGCCUCCCAUCACAGGCCUGGAGGCCUAGGUGGAAUUCUCGGGUGCCAA | 0.682
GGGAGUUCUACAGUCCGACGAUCUGAAUUCUUAGCUCCCUGAUUACACCUGCCACCUUGGAAUCAAGGACUCACACUUCUGACCCUGCCUGUCUUUUUGGGGUUUUUUUGAGUUGGAGUCUCGCUGUGUCGCCUGGAAUUCUCGGGUGCCAA | 1.63
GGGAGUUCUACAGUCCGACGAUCAGCUUCUAACCAUUAUGUGCUGAGUAAAUAAUGCUACCUAUGAUUUUAGAACGGAUUUCUCAGGUAUAGGGAGUUGAUUUCUUAAUACUUUUUGAAUUAUGAAAAAUAGCUGGAAUUCUCGGGUGCCAA | 0.819
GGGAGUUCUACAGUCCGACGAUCAAACAAGAAUGGCAAGCCUAAGUUUGUGAGGCAUCAUCACAAUUCUGUCAAAAUAAUGUUAUGCUUUUGAAAGAUAAAGCCUGCUCAAUCUAGGGAUCCAGUUGUGCAGUUGGAAUUCUCGGGUGCCAA | 3.7
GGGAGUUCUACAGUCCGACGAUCAGGCAAAGCACGGGUGAAGGUAGGCGCUAAAGGCUUUGGGCUAAAGCCAGCACGCGGUUCUGUGCUAUAGGAGUCUCCCGUUUCCCGUGGACAGGUUCAGCGUUCCUUCUUGGAAUUCUCGGGUGCCAA | 0.511
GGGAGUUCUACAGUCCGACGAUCUCAGCUGCUGCUUCUGGGCCACAGGGGGGGCCCCCAGGACCUUGCACUUUAUUCCUGCCCACGUGGCUUUUGGCUGAGACCUGUGUAACCUGCUGUCCCUCACUCACCUGUGGAAUUCUCGGGUGCCAA | 2.04

Set 2
Target: Interferon regulatory factor 3, full length, phosphomimetic (IRF3, Homo sapiens, UniProt Q14653, residues 1-427, S386D/S396D/S398D/S402D/T404D/S405D)
UniProt Q14653, sequence (whole entry, unmodified, looked up): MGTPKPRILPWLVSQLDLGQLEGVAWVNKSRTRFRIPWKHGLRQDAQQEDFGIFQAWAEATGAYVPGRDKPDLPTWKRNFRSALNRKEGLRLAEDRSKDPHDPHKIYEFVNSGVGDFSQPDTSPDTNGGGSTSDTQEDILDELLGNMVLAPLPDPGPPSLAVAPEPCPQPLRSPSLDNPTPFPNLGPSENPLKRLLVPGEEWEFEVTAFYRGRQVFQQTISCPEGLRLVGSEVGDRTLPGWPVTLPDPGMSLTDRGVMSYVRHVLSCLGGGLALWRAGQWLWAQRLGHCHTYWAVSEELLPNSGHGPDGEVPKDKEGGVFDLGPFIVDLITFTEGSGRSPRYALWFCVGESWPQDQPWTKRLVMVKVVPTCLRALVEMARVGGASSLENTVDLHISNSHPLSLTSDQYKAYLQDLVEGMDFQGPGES
Method: protein-binding microarray
Form: double-stranded DNA, one strand shown
Medium: in vitro
Tested at: 2540 nM top
Notes: 60-bp whole probe
With: salmon DNA 0.4 mg/ml
Relative to: random background probes
Reading: higher = stronger binding
Constant ends, left off below: GCCTAGCAC … GTCTTGATTCGCTTGACGCTGCTG
Strand | fitted relative affinity
TTAGGTATTGGTCTCGGTTAGTGCTAG | 0.906 z-score
TCTCCTCTAGGTTCTCTGAGAGTGCTA | 0.369 z-score
GACGGACTGGATATCGGGACGTGCTAG | -0.32 z-score
TCACTCTTCTTTTGCTAACTGTGCTAG | 1.83 z-score
TTAGGACCGGGTATCGGTTAGTGCTAG | 0.709 z-score
AGCAAGCCCCTTCCTTTCGGGTGCTAG | -0.102 z-score
TCATCTCTCTTAAATAGGACTGTGCTA | 1.25 z-score
TAAGGTTTCGGTTCCGGTTAGTGCTAG | 11.3 z-score
TCATCTTGCTTTTTAGAACTGTGCTAG | 1.74 z-score
GAAGATCTCAGTTTCGAGACGTGCTAG | 2.42 z-score
AGAAGATAAGCTGCAAGAAAGTGCTAG | -0.695 z-score
TTAGGTTTCAACACTGGGTTAGTGCTA | 0.616 z-score
GACGGTATCCTTTTCCCGACGTGCTAG | 7.93 z-score
GGCGGACTGGGGTTTCGGGACGTGCTA | 0.351 z-score
GACGATTTCAGTTTCGAGAAGTGCTAG | 4.4 z-score
GACGGTATAGGGTATCGGGACGTGCTA | -0.113 z-score
TCAAGAAAAAGAAAAAAAACTGTGCTA | -0.463 z-score
TTAGGACTCGGTCTCGGTTAGTGCTAG | 0.186 z-score
TCCAATTACCTTTTCACTTTGTGCTAG | 4.54 z-score
GTGAACCGGTCTCTCAGACCGTGCTAG | 0.795 z-score
GACGGTCTCAGTTTCGGGACGTGCTAG | 3.65 z-score
GACGATCGCAGACTGGAGACGTGCTAG | -0.226 z-score
TTAGGTACCGGTTTCGGTTAGTGCTAG | 6.01 z-score
GACGGTTTCCTTCTCCTGAGGTGCTAG | 9.18 z-score
TTAGGTTTCCTTTCCCTTCAGTGCTAG | 10.5 z-score

Set 3
Target: RING finger protein unkempt homolog, zinc fingers 1-6, SBP tag (UNK, Homo sapiens, UniProt Q9C0B0, residues 30-357)
UniProt Q9C0B0, sequence (30-357, looked up): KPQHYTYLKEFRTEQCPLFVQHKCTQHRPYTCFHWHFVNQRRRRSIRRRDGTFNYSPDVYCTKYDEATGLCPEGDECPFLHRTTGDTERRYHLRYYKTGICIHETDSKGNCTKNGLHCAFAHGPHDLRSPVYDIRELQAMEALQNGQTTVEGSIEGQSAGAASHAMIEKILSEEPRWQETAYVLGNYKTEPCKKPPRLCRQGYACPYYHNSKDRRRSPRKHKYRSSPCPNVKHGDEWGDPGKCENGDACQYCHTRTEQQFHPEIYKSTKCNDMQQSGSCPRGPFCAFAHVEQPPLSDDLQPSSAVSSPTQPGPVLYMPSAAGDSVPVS
Method: RNA Bind-n-Seq
Form: RNA
Medium: in vitro
Tested at: 100 nM
Notes: RNA with constant flanks, vertebrate orthologous sites, ends assumed
Relative to: input RNA pool
Reading: higher = stronger binding
Strand | bound/input enrichment [ratio]
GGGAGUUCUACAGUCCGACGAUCUGUAGGUGUUAUGUAUUCAGAUGACAGAAAUACCUAGUCUUCAGAUGAAUUUUUUGCUGAUGUACACGCUGUACCAAACAGUAAUCGUAAUGAUCUGUUGCUAUAGUGACAUGCAAUUAUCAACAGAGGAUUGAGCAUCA | 0.186
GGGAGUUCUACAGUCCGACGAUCCAUCUCUCAUUUUAUAUGUCCAAAAAUGACUUUGAAUUUUAAGCAGUUACUAGUUUUAAUUAGCUCUGCCCUCAUGAAGUGUUACUGUAAUUCACCAUAACCAGAUAUCUGUCUGAAUUUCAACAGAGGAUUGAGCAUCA | 0.787
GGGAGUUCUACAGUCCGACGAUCACAGGAGCAGCAUAGACUAUAAGAGCUUUGGGGAAAUGAGCUUUGCUUUUUAUUUUUGAAUAGGAUACUUUUAUAUGAUGGGUGCUUUGAGUGUGAAUACAGCAGGCUCUUCAUUUCAGACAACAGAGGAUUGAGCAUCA | 1.86
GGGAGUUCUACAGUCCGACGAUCGUUGUGAUCCCUUUAAUAUGCACAGAAAACUCUCAAAGAAAAACCUGCGUGCAAUUGACUUAGAUGAUGCAGCUUUUCUAAGUGCCAAGUUUGGAAGACAGUUUGUACCUGGUUGGAAGCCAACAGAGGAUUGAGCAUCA | 0.832
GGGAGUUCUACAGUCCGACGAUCUAUAAUUAUGAAAAUCUAAAGGAUUUUUAAUGUUUAAUUUCCCCUGGCAUAUUAAGACAUCUUUUUUCCAGGCAGAUCACUCAGUGUGUGAGUGUGUGUACACAUGUUACAAAGACAACUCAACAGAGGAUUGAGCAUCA | 0.144
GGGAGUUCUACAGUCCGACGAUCUUAUUCAGUCUUCCAUGUAGGGUCGGCCUCAGAUCUAUAGGAUUUAUGACAAAUGUAUUAUAUCUAGUUGAGUUUAAUAUUUUUUUAUUAGCCUGUAAAUAAAGAUGGCAUCUUCUACAUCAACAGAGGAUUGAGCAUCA | 0.753
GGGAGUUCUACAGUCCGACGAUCUUUUAUUGAUCAGGUCUGUAAAUGUGUACUAGAAUAAUCAGAGUUUAUUUAUAAAUACAAUAGCUUAUUUAAAGAGGUAUUUUCCUCCUUGCUAUCAUGGUAUGCAUAAUUCUGUGUGUUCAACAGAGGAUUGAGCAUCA | 0.488
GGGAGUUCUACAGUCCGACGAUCCAGCUGACUCACUUAUUGGGAGGGCUGCACAUAUAGCUGUUCUGGAUUCAGAAAUAUUUUUGGAAAAAUUCUUCCUGGUGGCUGCCCUCAAAUAUUUCCAAUAGAAUAAAAAUAUUAUUACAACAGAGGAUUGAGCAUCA | 0.542
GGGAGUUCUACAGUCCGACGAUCGUUGUGACCCCUUUAACAUACAUAAAAAACUAGCCAAAAAGAACUUGCAUGUAAUUGAUUUAGAUGAUGCCACUUUUCUGAGUGCAAAAUUUGGCAGACAGCUUGUACCUGGUUGGAAGCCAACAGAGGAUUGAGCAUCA | 1.02
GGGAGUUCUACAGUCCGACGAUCUUUUUUGUUAAACUUUAUUUUUUCCUUUCUUUUUCUUUCUGCCUUUUUUUUUUUUUUUGGUAGUUGUUGUUACCCACGCCAUUUUACGUCUCCUUCACUGAAGGGCUAGAGUUUUAACUUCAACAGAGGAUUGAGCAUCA | 1.23
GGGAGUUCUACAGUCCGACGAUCGAACCGAAACUUAUAGCAAAAGAGCCAAGCAGUAGCAGUUUUUGUAAAUGUAAAAAUAAUUAGAUCCAGACUUUGUUUCCUUCAAUUUUAAAAAUAAAAAAUACCUCAGUGCUAUGUUUUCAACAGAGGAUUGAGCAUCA | 1

Set 4
Target: Histone acetyltransferase KAT6A, both winged helices, GST fusion (KAT6A, Homo sapiens, UniProt Q92794, residues 1-181)
Method: protein binding microarray
Form: double-stranded DNA, one strand shown
Medium: in vitro
Tested at: not given
Notes: 8-mer, flanks averaged, mean of 2 arrays, mostly near background
Relative to: not given
Reading: higher = stronger binding
Construct (chain): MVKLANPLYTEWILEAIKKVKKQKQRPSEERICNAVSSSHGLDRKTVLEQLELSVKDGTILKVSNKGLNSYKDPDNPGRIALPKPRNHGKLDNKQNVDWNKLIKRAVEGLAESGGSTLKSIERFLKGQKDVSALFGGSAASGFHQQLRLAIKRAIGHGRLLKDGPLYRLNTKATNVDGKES
Strand | E-score
GCGTTAAA | 0.124
TCTGTGAA | -0.0337
AAAGAATA | -0.156
AAGTGATC | -0.0754
GATTGTGA | -0.0296
CCAACCCG | 0.201
TTCGCAAA | 0.00299
AAGGGAAA | -0.139
ACGGGCTC | 0.217
ACGGACTA | 0.0918
CATTTGGA | -0.0945
ATATTTAG | -0.0221
AAGGGCAC | -0.236
AACTCGGT | -0.0686
GCATTCCC | 0.0615
ATAGGGTC | -0.12
GTCTCACA | 0.00449
TCCAACCA | -0.122
AAATCTCC | -0.129

Repeated from above (set 1):
Strand | RBNS enrichment (R)
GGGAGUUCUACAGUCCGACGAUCAGCUUCUAACCAUUAUGUGCUGAGUAAAUAAUGCUACCUAUGAUUUUAGAACGGAUUUCUCAGGUAUAGGGAGUUGAUUUCUUAAUACUUUUUGAAUUAUGAAAAAUAGCUGGAAUUCUCGGGUGCCAA | 0.819
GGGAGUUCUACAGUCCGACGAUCAAACAAGAAUGGCAAGCCUAAGUUUGUGAGGCAUCAUCACAAUUCUGUCAAAAUAAUGUUAUGCUUUUGAAAGAUAAAGCCUGCUCAAUCUAGGGAUCCAGUUGUGCAGUUGGAAUUCUCGGGUGCCAA | 3.7
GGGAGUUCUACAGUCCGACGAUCAGGCAAAGCACGGGUGAAGGUAGGCGCUAAAGGCUUUGGGCUAAAGCCAGCACGCGGUUCUGUGCUAUAGGAGUCUCCCGUUUCCCGUGGACAGGUUCAGCGUUCCUUCUUGGAAUUCUCGGGUGCCAA | 0.511
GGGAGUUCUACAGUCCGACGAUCUCAGCUGCUGCUUCUGGGCCACAGGGGGGGCCCCCAGGACCUUGCACUUUAUUCCUGCCCACGUGGCUUUUGGCUGAGACCUGUGUAACCUGCUGUCCCUCACUCACCUGUGGAAUUCUCGGGUGCCAA | 2.04
